Assay results collected from several papers.
Lines come from different studies, so protocols differ.
Organism: Staphylococcus aureus

Compound	test	test system	conditions	MIC
CC(=CC(C)CCCCC(=O)O)C1OC2C=CC1OC(=O)C=CC=CC=CC1OC3CC1OC(C=CCC1OC(CC(O)C1C)C(O)C(O)C=CCCC=CC2)C3C (stereo not drawn)		RKI 11-02670		0.15 µM
C#CCOc1ccc(CN[C@@]2(C)C[C@H](O[C@H]3[C@H](Oc4c5cc6cc4Oc4ccc(cc4Cl)[C@@H](O)[C@@H](NC(=O)[C@@H](CC(C)C)NC)C(=O)N[C@@H](CC(N)=O)C(=O)N[C@H]6C(=O)N[C@H]4C(=O)N[C@H](C(=O)N[C@H](C(=O)NCC(N)=O)c6cc(O)cc(O)c6-c6cc4ccc6O)[C@H](O)c4ccc(c(Cl)c4)O5)O[C@H](CO)[C@@H](O)[C@@H]3O)O[C@@H](C)[C@H]2O)cc1OC	broth microdilution	VISA NRS402, tryptic soy broth	20 to 24 h, 37 °C, 0.002% polysorbate 80	4 µg/mL
CC(C)C[C@H](NC(=O)[C@H](CC(C)C)NC(=O)[C@H](CCCCN)NC(=O)[C@H](Cc1ccccc1)NC(=O)[C@@H](NC(=O)[C@H](CCCNC(=N)N)NC(=O)[C@H](CCCCN)NC(=O)[C@H](Cc1c[nH]c2ccccc12)NC(=O)[C@@H](NC(=O)[C@@H](N)CCCNC(=N)N)C(C)C)C(C)C)C(=O)N[C@@H](CCCCN)C(=O)N[C@@H](CCCNC(=N)N)C(=O)N[C@@H](Cc1ccc(O)cc1)C(=O)N[C@@H](Cc1c[nH]c2ccccc12)C(=O)N[C@@H](CCCNC(=N)N)C(N)=O	broth microdilution	MRSA 109		0.96 µg/mL
CCCCCCCC[C@H](NC(=O)[C@@H]1CSC([C@@H](N)[C@@H](C)CC)=N1)C(=O)N[C@H](CCC(=O)O)C(=O)N[C@H](C(=O)N[C@H]1CCCCNC(=O)[C@H](CC(N)=O)NC(=O)[C@@H](CC(=O)O)NC(=O)[C@H](Cc2c[nH]cn2)NC(=O)[C@@H](Cc2ccccc2)NC(=O)[C@H]([C@@H](C)CC)NC(=O)[C@@H](CCCN)NC1=O)[C@@H](C)CC		ATCC 29213 MSSA	LB with 0.3 mM ZnSO4	1 µg/mL
CCn1c(-c2ccc(OC)cc2)c(-c2ccc(OC)cc2)n(CC)c1=[Se]	microbial growth, broth dilution	ATCC700699 VISA	24 h, drug-resistant strain	> 40 µM
CC[C@H](C)[C@H](NC(=O)[C@H](Cc1c[nH]c2ccccc12)NC(=O)[C@H](CCCNC(=N)N)NC(=O)[C@@H]1CCCN1C(=O)[C@H](CCCNC(=N)N)NC(=O)[C@@H]1CCCN1C(=O)[C@H](CC(C)C)NC(=O)[C@H](Cc1ccc(O)cc1)NC(=O)[C@@H]1CCCN1C(=O)[C@@H]1CCCN1C(=O)[C@H](CCCCN)NC(=O)[C@H](CC(=O)O)NC(=O)[C@@H](N)C(C)C)C(=O)N[C@@H](CCCNC(=N)N)C(=O)N[C@H](CCCNC(=N)N)C(=O)N[C@H](C(=O)N[C@@H](Cc1ccc(O)cc1)C(=O)N[C@@H](CC(N)=O)C(=O)N[C@H](CCCNC(=N)N)C(N)=O)[C@@H](C)CC	broth microdilution	DSM 6247	18 h, 37 °C, 25% MHB2	128 µg/mL
CC[C@H](C)[C@@H]1NC(=O)[C@H](CO)NC(=O)C(C)(CCCCN)NC(=O)[C@@H]2CSSC[C@@H](C(=O)N[C@@H](Cc3ccc(O)cc3)C(N)=O)NC(=O)[C@H](CCCCN)NC(=O)[C@@H]3CSSC[C@H](NC(=O)[C@H](CCCNC(=N)N)NC(=O)C(C)(CC(C)C)NC(=O)[C@H](CC(=O)O)NC(=O)[C@H](CC(=O)O)NC(=O)[C@H](CCC(=O)O)NC(=O)[C@H](CC(N)=O)NC(=O)[C@H](Cc4c[nH]c5ccccc45)NC(=O)C(C)(CC)NC(=O)CNC(=O)[C@H](CC(N)=O)NC(=O)[C@@H](NC(=O)CNC(=O)[C@H](Cc4ccccc4)NC(=O)CN)CSSC[C@H](NC(=O)[C@H](Cc4ccc(O)cc4)NC(=O)CNC(=O)CNC(=O)[C@H](CCCCN)NC(=O)[C@H](Cc4ccc(O)cc4)NC(=O)[C@H]4CCCN4C(=O)[C@@H]4CCCN4C1=O)C(=O)N[C@@H](C)C(=O)N[C@@H](CCCCN)C(=O)N1CCC[C@@H]1C(=O)NCC(=O)N[C@@H](Cc1ccccc1)C(=O)N[C@@H](C(C)C)C(=O)N3)C(=O)N[C@@H](Cc1c[nH]cn1)C(=O)NC(C)(C)C(=O)N[C@@H](Cc1c[nH]cn1)C(=O)N2 (stereo partly drawn)	broth microdilution	ATCC 49775	18 h	2 µM
CC[C@H]1OC(=O)[C@H](C)[C@@H](OC(=O)Cc2ccccc2)[C@H](C)[C@@H](O[C@@H]2O[C@H](C)C[C@H](N(C)C)[C@H]2O)[C@](C)(OC)C[C@@H](C)C(=O)[C@H](C)[C@@H](O)[C@]1(C)O		BAA-977		8 µg/mL
N=C(N)NCCC[C@H](NC(=O)[C@H](CCCNC(=N)N)NC(=O)[C@H](Cc1ccccc1)NC(=O)[C@H](CO)NC(=O)[C@H](Cc1ccccc1)NC(=O)[C@H](Cc1c[nH]c2ccccc12)NC(=O)[C@H](Cc1ccccc1)NC(=O)[C@H](CO)NC(=O)[C@H](Cc1ccccc1)NC(=O)[C@H](CCCNC(=N)N)NC(=O)[C@@H](N)CCCNC(=N)N)C(N)=O		MRSA 43300	24 h, 37 °C	128 µM
CC(C)CCCCCCCCC/C=C/C(=O)N[C@@H](CC(=O)O)C(=O)N[C@H]1CNC(=O)[C@@H]2CCCN2C(=O)[C@H](C(C)C)NC(=O)[C@@H](CN)NC(=O)CNC(=O)[C@H](CC(=O)O)NC(=O)CNC(=O)[C@H](CC(=O)O)NC(=O)[C@H](CC(=O)O)NC(=O)[C@H]2CCCCN2C1=O	broth microdilution	BR-VRSA strain 880, Mueller-Hinton broth, Mg2+ 10 mg/L	16 h, with: Ca2+ 5 mM	2 µg/mL
C#CCNC(=O)[C@H]1NC(=O)[C@H]2NC(=O)[C@H](NC(=O)[C@@H]3NC(=O)[C@H](CC(N)=O)NC(=O)[C@H](NC(=O)[C@@H](CC(C)C)NC)[C@H](O)c4ccc(c(Cl)c4)Oc4cc3cc(c4O[C@@H]3O[C@H](CO)[C@@H](O)[C@H](O)[C@H]3O[C@H]3C[C@](C)(N)[C@H](O)[C@H](C)O3)Oc3ccc(cc3Cl)[C@H]2O)c2ccc(O)c(c2)-c2c(O)cc(O)cc21		VRSA 2 vanA		> 86 µM
CC[C@H](C)[C@H](NC(=O)[C@H](CC(C)C)NC(=O)[C@H](CCCNC(=N)N)NC(=O)CNC(=O)CNC(=O)[C@H](CCCCN)NC(=O)[C@H](CCCNC(=N)N)NC(=O)[C@H](CC(C)C)NC(=O)[C@H](CC(C)C)NC(=O)[C@H](CCCNC(=N)N)NC(=O)[C@@H](NC(=O)[C@H](CC(C)C)NC(=O)[C@@H](N)CO)[C@@H](C)O)C(=O)NCC(=O)N[C@@H](Cc1c[nH]c2ccccc12)C(=O)N[C@@H](CCCNC(=N)N)C(=O)N[C@@H](Cc1c[nH]c2ccccc12)C(=O)N[C@@H](CCC(=O)O)C(=O)N[C@@H](CCCCN)C(=O)N[C@H](C(=O)N[C@@H](CCCNC(=N)N)C(=O)N[C@@H](CC(N)=O)C(=O)N[C@@H](Cc1c[nH]c2ccccc12)C(=O)N[C@H](C(=O)N[C@@H](CCCNC(=N)N)C(=O)N[C@@H](CCCNC(=N)N)C(=O)N[C@H](C(=O)N[C@H](C(=O)N[C@@H](CCC(=O)O)C(=O)N[C@@H](CCCCN)C(=O)N[C@@H](CCCNC(=N)N)C(=O)N[C@@H](CCCCN)C(=O)N1CCC[C@H]1C(=O)N[C@@H](CC(N)=O)C(=O)N[C@@H](CCCCN)C(=O)O)[C@@H](C)CC)[C@@H](C)CC)[C@@H](C)CC)[C@@H](C)O	broth microdilution	ATCC 25923, Mueller-Hinton broth	16 to 20 h, 37 °C	4.39 µg/mL
C#CCOc1ccc(CN[C@@]2(C)C[C@H](O[C@H]3[C@H](Oc4c5cc6cc4Oc4ccc(cc4Cl)[C@@H](O)[C@@H](NC(=O)[C@@H](CC(C)C)NC)C(=O)N[C@@H](CC(N)=O)C(=O)N[C@H]6C(=O)N[C@H]4C(=O)N[C@H](C(=O)N[C@H](C(=O)N[C@@H](CCCNC(=N)N)C(N)=O)c6cc(O)cc(O)c6-c6cc4ccc6O)[C@H](O)c4ccc(c(Cl)c4)O5)O[C@H](CO)[C@@H](O)[C@@H]3O)O[C@@H](C)[C@H]2O)cc1OC		MRSA USA300		0.281 µM
CC[C@H](C)[C@H](NC(=O)[C@@H](CCCNC(=N)N)NC(=O)[C@H](CCCNC(=N)N)NC(=O)[C@H](Cc1ccc(O)cc1)NC(=O)[C@H](Cc1c[nH]c2ccccc12)NC(=O)[C@H](CCCNC(=N)N)NC(=O)[C@@H]1CCCN1C(=O)[C@H](CCCNC(=N)N)NC(=O)[C@@H]1CCCN1C(=O)[C@H](CC(C)C)NC(=O)[C@H](Cc1ccc(O)cc1)NC(=O)[C@@H]1CCCN1C(=O)[C@@H]1CCCN1C(=O)[C@H](CCCCN)NC(=O)[C@H](CC(=O)O)NC(=O)[C@@H](N)C(C)C)C(=O)N[C@@H](Cc1ccc(O)cc1)C(=O)N[C@@H](CC(N)=O)C(=O)N[C@H](CCCNC(=N)N)C(N)=O	broth microdilution	DSM 6247	18 h, 37 °C, 25% MHB2	64 µg/mL
CC[C@H](C)[C@H](NC(=O)[C@@H]1CCCN1C(=O)[C@H](CC(C)C)NC(=O)[C@@H](N)CC(C)C)C(=O)N[C@H](C(=O)NCC(=O)N[C@@H](CC(N)=O)C(=O)N[C@@H](CC(C)C)C(=O)N[C@@H](CC(C)C)C(=O)N[C@@H](CCCCN)C(=O)N[C@@H](CO)C(=O)N[C@@H](CC(C)C)C(=O)N[C@@H](CC(C)C)C(N)=O)C(C)C	broth dilution	ATCC 25923	24 h, 37 °C	16 µg/mL

Repeated from above:
Compound	test	test system	conditions	MIC
C#CCOc1ccc(CN[C@@]2(C)C[C@H](O[C@H]3[C@H](Oc4c5cc6cc4Oc4ccc(cc4Cl)[C@@H](O)[C@@H](NC(=O)[C@@H](CC(C)C)NC)C(=O)N[C@@H](CC(N)=O)C(=O)N[C@H]6C(=O)N[C@H]4C(=O)N[C@H](C(=O)N[C@H](C(=O)N[C@@H](CCCNC(=N)N)C(N)=O)c6cc(O)cc(O)c6-c6cc4ccc6O)[C@H](O)c4ccc(c(Cl)c4)O5)O[C@H](CO)[C@@H](O)[C@@H]3O)O[C@@H](C)[C@H]2O)cc1OC		MRSA USA300		0.281 µM
